Published values gathered from unrelated publications.
Lines come from different studies, so protocols differ. ± gives the spread as reported.
Kir3.1/Kir3.2: Kir3.1/Kir3.2 (Homo sapiens, UniProt P48051+P48549)

SMILES | target or system | test | test system | setting | scale | endpoint | result
C=CCn1c(=O)c2ccccc2n2c(SC(C(=O)OCC)c3ccccc3)nnc12 (stereo not drawn) | Muscarinic acetylcholine receptor M2 (CHRM2, Homo sapiens, UniProt P08172) | receptor activation, agonist |  | concentration not given, 16 h |  | Emax | 232 ± 15%
O=C(COc1ccc(Cl)cc1Cl)Nc1cc(C2CC2)nn1C1CCOCC1 | Kir3.1/Kir3.2 | thallium flux, activator | HEK293 |  | reference: standard compound | Emax | 81%
COc1cc(C2C(NC(=O)c3ccc(NC(=O)OC(C)(C)C)cc3)(C(=O)O)C(c3ccc(OC(=O)c4cccs4)c(OC)c3)C2(NC(=O)c2ccc(NC(=O)OC(C)(C)C)cc2)C(=O)O)ccc1OC(=O)c1cccs1 (stereo not drawn) | Glucagon-like peptide 1 receptor, with β-arrestin 2 (GLP1R, Homo sapiens, UniProt P43220) | β-arrestin 2 recruitment, agonist, BRET |  |  | reference: GLP-1 response | Emax | 2.76 ± 2.54%
CNS(=O)(=O)Nc1nccc(Cc2c(C)c3ccc(Oc4ncccc4F)cc3oc2=O)c1F | OV7 | cell viability |  | 7 days |  | IC50 | > 1 µM
Nc1ncc(-c2cc(-c3cnn(CC(F)(F)F)c3)ncc2F)nc1C(=O)NC1CNCC(F)C1 (stereo not drawn) | SgK110 | KINOMEscan competition binding |  | 1 µM | reference: DMSO control | remaining binding | 70%
Cc1ncsc1-c1ccc(C(C)NC(=O)C2CC(O)CN2C(=O)C(NC(=O)CCCCCCCCCCN2CCCC(Nc3ncc(Cl)c(Nc4ccccc4S(=O)(=O)C(C)C)n3)C2)C(C)(C)C)cc1 (stereo not drawn) | 22Rv1 | RNA-seq, measured: PIM1 mRNA |  | concentration not given | reference: DMSO | log2 fold change | -1.89
C=CCn1c(=O)c2ccccc2n2c(SCC(=O)Nc3ccc(NC(C)=O)cc3)nnc12 | Muscarinic acetylcholine receptor M4 (CHRM4, Homo sapiens, UniProt P08173) | receptor activation, agonist |  | concentration not given, 16 h |  | Emax | 128 ± 2%
CSCC[C@H](NC(=O)[C@H](CC(C)C)NC(=O)CNC(=O)[C@H](Cc1ccccc1)NC(=O)[C@H](Cc1ccccc1)NC(=O)[C@@H](N)CCC(N)=O)C(N)=O | Substance-P receptor (TACR1, Homo sapiens, UniProt P25103, N85Q) | agonist |  | concentration not given |  | Emax | 66 ± 7%
Cc1c(C)n(Cc2ccc(-c3ccccc3C(=O)O)cc2)c2ccc(C(=O)N[C@@H](C)c3ccc([N+](=O)[O-])cc3)cc12 | Peroxisome proliferator-activated receptor gamma (PPARG, Homo sapiens, UniProt P37231) | reporter gene, agonist, luciferase | COS-1 |  |  | Emax | 0%
C=CC(=O)Nc1cccc(Cn2ncc3cnc(Nc4cnn(CCOC)c4)nc32)c1 | PYK2 human | binding, KINOMEscan |  | 100 nM | lower = stronger binding | percent of control | 100%
O=C1NC2(CC2)COc2ncc(F)cc2[C@H]2COCCN2c2ccn3ncc1c3n2 | Salmonella typhimurium | Ames test | TA100 | 1500 µg/plate, 48 h, added: rat liver S9 |  | revertant colonies | 72 ± 14 revertants/plate
COc1ccc(C2(C(=O)N3CCC(Nc4nc5ccccc5c(=O)[nH]4)CC3)CC2)cc1 | MRGPRD (Homo sapiens, UniProt Q8TDS7, Y245A) | miniGq recruitment, agonist, BRET | HEK293T | Y245A mutant | reference: wild type | Emax | 45.1 ± 6.92%
CCc1cc(O)cc2c(/C=N/NC(=N)NCCc3ccc(Cl)cc3)c[nH]c12 | Relaxin-3 receptor 2 (RXFP4, Homo sapiens, UniProt Q8TDU9, V122A) |  | HEK-293T |  | reference: wild type | Emax | 77.7 ± 9.69%
O=C1C[C@H](c2nc(-c3ccc(F)c4cn[nH]c34)no2)CCCN1c1ccc(F)cc1 (racemic) | Cannabinoid receptor 2 (CNR2, Homo sapiens, UniProt P34972) | cAMP, agonist, luciferase | CHO |  |  | Emax | 100%
O=C(COc1cc(Cl)ccc1Cl)Nc1cc(C2CC2)nn1C1CCOCC1 | Kir3.1/Kir3.2 | thallium flux, activator | HEK293 |  | reference: standard compound | Emax | 82%
CCCC[C@H](NC(C)=O)C(=O)N[C@H]1CCC(=O)NCCC[C@@H](C(=O)N[C@@H](C(=O)N2CCC[C@@H]2C(N)=O)C(C)C)NC(=O)[C@H](Cc2c[nH]c3ccccc23)NC(=O)[C@H](CCCNC(=N)N)NC(=O)[C@@H](Cc2ccc(F)cc2)NC(=O)[C@@H]2CCCN2C1=O | Melanocortin receptor 4 (MC4R, Homo sapiens, UniProt P32245) | cAMP, agonist | CHO-K1 |  |  | Emax | 90%
CC[C@H](C)[C@@H]1NC(=O)[C@H](Cc2ccccc2)NC(=O)[C@H](CCC(=O)O)NC(=O)[C@H](CCCNC(=N)N)NC(=O)CNC(=O)[C@@H](NC(=O)[C@H](CC(C)C)NC(=O)[C@H](CCCNC(=N)N)NC(=O)[C@@H](NC(=O)CNC(=O)[C@H](Cc2ccc(O)cc2)NC(=O)[C@@H]2CCCN2C(=O)[C@H](C)NC(=O)[C@H](C)NC(=O)[C@@H](N)CCCNC(=N)N)C(C)C)CSSC[C@@H]2NC(=O)[C@@H](NC(=O)[C@H](CO)NC(=O)[C@H](CO)NC(=O)[C@H](CO)NC(=O)[C@H](CC(C)C)NC(=O)CNC(=O)[C@H](C)NC(=O)[C@H](CC(C)C)NC(=O)[C@@H](NC(=O)[C@@H](N)CC(=O)O)C(C)C)CSSC[C@H](NC(=O)CNC(=O)[C@H](Cc3c[nH]c4ccccc34)NC(=O)[C@H](CCCCN)NC2=O)C(=O)N[C@@H](CO)C(=O)N[C@@H](CCCCN)C(=O)N[C@@H](CO)C(=O)N[C@@H](CCC(=O)O)C(=O)N[C@@H]([C@@H](C)CC)C(=O)N[C@@H](CO)C(=O)N[C@@H](CO)C(=O)N[C@@H](CC(C)C)C(=O)N[C@H](C(=O)O)CSSC[C@@H](C(=O)NCC(=O)NCC(=O)N[C@@H](CO)C(=O)N[C@@H](CCCNC(=N)N)C(=O)N[C@@H](Cc2c[nH]c3ccccc23)C(=O)O)NC(=O)[C@H]([C@@H](C)O)NC(=O)[C@H](Cc2ccccc2)NC(=O)[C@H]([C@@H](C)CC)NC(=O)[C@H](C(C)C)NC(=O)[C@H](C)NC(=O)[C@H](CCCNC(=N)N)NC1=O | Relaxin-3 receptor 2 (RXFP4, Homo sapiens, UniProt Q8TDU9, D104A) |  | HEK-293T |  | reference: wild type | Emax | 77.9 ± 6.09%
C=C(NC(=O)c1csc(-c2nc3c(cc2O)-c2nc(cs2)C(=O)NC(C(C)O)C(=O)NC(=C(C)OC)c2nc(cs2)C(=O)NC2c4nc(cs4)C(=O)NC(COC(=O)c4c5c6c(cccc6n4O)COC(=O)C(OC4CC(C)(O)C(N(C)C)C(C)O4)C2OC5)c2nc-3cs2)n1)C(N)=O (stereo not drawn) |  |  | Sprague-Dawley rat, female, plasma | intravenous infusion, 6 mg/kg, multiple doses, day 1 |  | Vz/F | 17.5 L/kg
CC1(C)C[C@@H](Nc2cccc(-c3sc(C(=O)O)c(OCC(=O)O)c3Cl)c2)CCN1S(=O)(=O)Cc1cccc(NC(=O)CN2CCC(c3ccc4c(c3)oc(=O)n4C3CCC(=O)NC3=O)CC2)c1 (stereo partly drawn) | Tyrosine-protein phosphatase non-receptor type 2 (PTPN2, Homo sapiens, UniProt P17706) | protein degradation, degrader, HiBiT | B16-F10 cells | 24 h |  | Emax | 10%
CN1CCCNC(=O)c2cccc(c2)C(=O)NCCCN(C)CCCNc2cccc3c2C(=O)c2cccc(c2C3=O)NCCC1 | SAS | RNA-Seq, measured: ZNF263 mRNA |  | 1 µM, 6 h | reference: untreated cells | log2 fold change | -0.662
O=C(COc1cccc(Cl)c1Cl)Nc1cc(C2CC2)nn1C1CCOCC1 | Kir3.1/Kir3.2 | thallium flux, activator | HEK293 |  | reference: standard compound | Emax | 70%
COC1CN([C@H]2CC[C@H]([C@@]3(C)Oc4c(Cl)cc(C(=O)NCc5c(SC)cc(C)[nH]c5=O)c(C)c4O3)CC2)C1 |  | RNA-seq, measured: RAB36 mouse homolog | mouse, HT-1376 xenograft, whole blood | dose not given | reference: vehicle | log2 fold change | 0.425
Cc1cc(NC(=O)COc2ccc(Cl)cc2Cl)n(CC(F)(F)F)n1 | Kir3.1/Kir3.2 | thallium flux, activator | HEK293 |  | reference: standard compound | Emax | 85%
COc1ccc(C(=O)c2c(C(=O)NCCCN(C)C)oc3ccc(Cl)cc3c2=O)cc1OC | Growth hormone secretagogue receptor type 1 (GHSR, Homo sapiens, UniProt Q92847, R199A) | intracellular Ca2+, agonist | HEK293T transiently transfected |  |  | Emax | 83.1 ± 3.5%

Excerpt of the above:
SMILES | target or system | test | test system | setting | scale | endpoint | result
O=C(COc1ccc(Cl)cc1Cl)Nc1cc(C2CC2)nn1C1CCOCC1 | Kir3.1/Kir3.2 | thallium flux, activator | HEK293 |  | reference: standard compound | Emax | 81%
COc1cc(C2C(NC(=O)c3ccc(NC(=O)OC(C)(C)C)cc3)(C(=O)O)C(c3ccc(OC(=O)c4cccs4)c(OC)c3)C2(NC(=O)c2ccc(NC(=O)OC(C)(C)C)cc2)C(=O)O)ccc1OC(=O)c1cccs1 (stereo not drawn) | Glucagon-like peptide 1 receptor, with β-arrestin 2 (GLP1R, Homo sapiens, UniProt P43220) | β-arrestin 2 recruitment, agonist, BRET |  |  | reference: GLP-1 response | Emax | 2.76 ± 2.54%
CNS(=O)(=O)Nc1nccc(Cc2c(C)c3ccc(Oc4ncccc4F)cc3oc2=O)c1F | OV7 | cell viability |  | 7 days |  | IC50 | > 1 µM
